Assay results gathered from unrelated publications.
± marks the error that the study gave.

CN[C@H]1CN(c2ccc3c(=O)c(C(=O)O)cn(-c4nccs4)c3n2)C[C@@H]1OC — Vss (human patients, plasma; intravenous, 18 to 90 mg/m^2 weekly, day 1, cycle 1, mean, noncompartmental): 120 L
O=C(c1nc2n(n1)[C@H](c1ccccc1)C[C@@H]2F)C1CC1 — Vd/F (human, plasma; oral, 25 mg, single dose, fasted, healthy volunteers): 76.1 L
CC(=O)N1CCN(c2ccc(OCC3COC(Cn4ccnc4)(c4ccc(Cl)cc4Cl)O3)cc2)CC1 (centres unmarked) — EC20 (cytochrome c release, ELISA; BALB/cByJ female mouse liver mitochondria; 30 min; reference: alamethicin maximal release): > 400 µM
CCc1cc2cc(OC)cc(C(=O)c3cc(Br)c(O)c(Br)c3)c2o1 — microsomal CLint (metabolic stability; Sprague-Dawley rat, liver microsomes; 1 µM, pH 7.4): 8.5 µL/min/mg
O=C(Cc1cccc(OC(F)(F)F)c1)Nc1ccc(CCCCc2nnc(NC(=O)Cc3ccccn3)s2)nn1 — AUC(0-8h) (human patients, plasma; oral, 250 mg three times daily fasted, cycle 1 day 15 steady state): 4630 ng·h/mL
C[C@@]12C[C@@]3(O)O[C@@H](O1)[C@]1(COC(=O)c4ccccc4)[C@H]3C[C@@]12O[C@@H]1O[C@H](CO)[C@@H](O)[C@H](O)[C@H]1O — accuracy (rat plasma QC samples; 750 ng/mL, 45 days, -80 °C, long-term stability, middle QC): 95.2 % nominal
Cc1c(Cl)cccc1Nc1ccccc1C(=O)O — EC20 (cytochrome c release, ELISA; BALB/cByJ female mouse liver mitochondria; 30 min; reference: alamethicin maximal release): > 200 µM
CNCc1ccc(-c2[nH]c3cc(F)cc4c3c2CCNC4=O)cc1 — AUC(0-24 h) (human cancer patients, plasma; intravenous, 4 mg/m2, day 4, added: temozolomide 100): 278 ng·h/mL
COc1cccc(N2CCN(C3=Nc4c(F)cccc4[C@H](CC(=O)O)N3c3cc(C(F)(F)F)ccc3OC)CC2)c1 — clearance (UHPLC-MS/MS; healthy women, plasma; intravenous infusion, 480 mg single dose, 60 min infusion, HPβCD formulation): 78.5 ± 16.3 mL/min
O=C(O)c1ccccc1O — EC20 (cytochrome c release, ELISA; BALB/cByJ female mouse liver mitochondria; 30 min; reference: alamethicin maximal release): > 200 µM
COc1cc(Nc2ncc3c(n2)-c2ccc(Cl)cc2C(c2c(F)cccc2OC)=NC3)ccc1C(=O)O — AUC(0-8h) (human, phase I; oral, 30 mg twice daily, added: combination with other drug): 6120 ± 2330 ng·h/mL
CC(=O)N[C@@H](Cc1ccccc1)C(=O)N[C@H]1CCCNC(=O)[C@H](CCCNC(=N)N)NC(=O)[C@H](Cc2c[nH]c3ccccc23)NC(=O)[C@@H](CC2CCCCC2)NC(=O)[C@@H]2CCCN2C1=O — elimination half-life (C57BL/6J mice, brain; intraperitoneal, 1 mg/kg): 0.957 h
COc1cccc(-c2ccc(NC(=O)C3=C(C(=O)O)CCC3)c(F)c2)c1 — AUC(0-24h) (human, male, fasted, plasma; oral, 30 mg, single dose, geometric mean): 64500 ng·h/mL
CC1=C2C[C@H]3[C@@H](CC[C@@H]4C[C@H](NS(C)(=O)=O)CC[C@@]43C)[C@@H]2CC[C@@]2(C1)O[C@@H]1C[C@H](C)CN[C@H]1[C@H]2C — AUC(0-24) (patients, plasma; oral, 60 mg daily, day 22, cycle 1): 2100 ng·h/mL
CCOc1ccc2c(c1)C(C)=CC(C)(C)N2 — residue concentration (LC-MS/MS; piglets, subcutaneous fat; oral, 50 mg/kg feed, 42 days): 8.6 ± 5.9 ng/g
CC(C)(c1ccc(O)cc1)c1ccc(O)cc1 — half-life (GC-MS; exposure tank water with snails, reconstituted water; 500 ng/L nominal, 27 °C): 3.04 h
CO[C@H]1C[C@@H]2CC[C@@H](C)[C@@](O)(O2)C(=O)C(=O)N2CCCC[C@H]2C(=O)O[C@H]([C@H](C)C[C@@H]2CC[C@@H](O)[C@H](OC)C2)CC(=O)[C@H](C)/C=C(\C)[C@@H](O)[C@@H](OC)C(=O)[C@H](C)C[C@H](C)/C=C/C=C/C=C/1C — Cmax (human, whole blood; oral, 15 mg, without grapefruit juice): 50.3 ng/mL
Nc1ccc(-c2nc(-c3ccc(Oc4ccc(C(F)(F)F)cc4)cc3)no2)cc1 — elimination half-life (ICR mice, female, plasma; oral, 50 mg/kg): 36 h
CN(C/C=C/C#CC(C)(C)C)Cc1cccc2ccccc12 — EC20 (cytochrome c release, ELISA; BALB/cByJ female mouse liver mitochondria; 30 min; reference: alamethicin maximal release): > 50 µM
Nc1ccn([C@@H]2O[C@H](CO)[C@@H](O)C2(F)F)c(=O)n1 — AUC(0-inf) (BALB/c mouse, female, plasma; intravenous, 4 mg/kg): 11200 ± 2820 ng·h/mL
Cc1ccccc1-c1cc(N2CCN(C)CC2)ncc1N(C)C(=O)C(C)(C)c1cc(C(F)(F)F)cc(C(F)(F)F)c1 — CYP3A4 contribution to metabolism (CLint with/without CYP3A4 inhibitor; human liver microsomes): 95%
CN1CC2CCC(C1)N2Cc1ccc(-c2cnc3[nH]cc(-c4cccc(Cl)c4)c3c2)cc1 — half-life (metabolic stability; CD-1 mouse, liver microsomes; 20 µM, pH 7.4): > 2 h
CC[C@H](C)[C@H](NC(=O)[C@H](Cc1ccccc1)NC(=O)[C@H](CCC(=O)O)NC(=O)[C@H](CCCCNC(=O)COCCOCCNC(=O)COCCOCCNC(=O)CC[C@H](NC(=O)CCCCCCCCCCCCCCCCC(=O)O)C(=O)O)NC(=O)[C@H](C)NC(=O)[C@H](C)NC(=O)[C@H](CCC(N)=O)NC(=O)CNC(=O)[C@H](CCC(=O)O)NC(=O)[C@H](CC(C)C)NC(=O)[C@H](Cc1ccc(O)cc1)NC(=O)[C@H](CO)NC(=O)[C@H](CO)NC(=O)[C@@H](NC(=O)[C@H](CC(=O)O)NC(=O)[C@H](CO)NC(=O)[C@@H](NC(=O)[C@H](Cc1ccccc1)NC(=O)[C@@H](NC(=O)CNC(=O)[C@H](CCC(=O)O)NC(=O)C(C)(C)NC(=O)[C@@H](N)Cc1cnc[nH]1)[C@@H](C)O)[C@@H](C)O)C(C)C)C(=O)N[C@@H](C)C(=O)N[C@@H](Cc1c[nH]c2ccccc12)C(=O)N[C@@H](CC(C)C)C(=O)N[C@H](C(=O)N[C@@H](CCCNC(=N)N)C(=O)NCC(=O)N[C@@H](CCCNC(=N)N)C(=O)NCC(=O)O)C(C)C — dose-corrected accumulation ratio (Caucasian subjects; subcutaneous once weekly, 0.5 mg, geometric mean; reference: steady state over single dose): 2.3
Cn1c(-c2ccc(C(N)=O)cc2F)nnc1C(C)(C)Oc1c(F)cc(Cl)cc1F — mean Cmax (young non-Japanese humans, plasma; oral, 2 mg once daily, last day of 14 days): 21.2 ng/mL
OCCN1CCN(CCCN2c3ccccc3Sc3ccc(Cl)cc32)CC1 — log intrinsic permeability (in situ brain perfusion; rat; no efflux inhibition): -2.62
CC(=O)CCc1ccc(O)cc1 — AUC(0-12 h) (normal-weight male C57BL/6J mice, brain; oral, 200 mg/kg): 33.7 ± 2.3 nmol·min/g
CS(=O)(=O)n1cc2c(n1)CN([C@H]1CO[C@H](c3cc(F)ccc3F)[C@@H](N)C1)C2 — Ctrough (healthy Japanese men, plasma; oral, 10 mg once weekly, day 15): 10.1 nM
CC[C@@]1(O)C(=O)OCc2c1cc1n(c2=O)Cc2cc3c(CN(C)C)c(O)ccc3nc2-1 — AUC(0-inf) (human patients, plasma; oral, 4 mg, day 15, geometric mean, added: pazopanib 800 mg): 102 ng·h/mL
CS(=O)(=O)n1cc2c(n1)CN([C@H]1CO[C@H](c3cc(F)ccc3F)[C@@H](N)C1)C2 — AUC(0-24h) (healthy male human, plasma; oral, 12.5 mg, fasted, geometric mean): 4.2 µM·h
Cc1ccc(C(=O)c2cc(O)c(O)c([N+](=O)[O-])c2)cc1 — EC20 (mitochondrial swelling; BALB/cByJ female mouse liver mitochondria; 30 min, added: succinate + rotenone; reference: CaCl2 maximal swelling): > 400 µM
O=C(/C=C/c1ccc(O)c(O)c1)O[C@@H]1C[C@](O)(C(=O)O)C[C@@H](O)[C@H]1O — mean concentration (human, fasted baseline, cerebrospinal fluid): 3.2 nM
CC(C)[C@H](NC(=O)[C@@H]1CCCN1C(=O)[C@H](CCCNC(=N)N)NC(=O)[C@H](CS)NC(=O)[C@H](Cc1c[nH]c2ccccc12)NC(=O)[C@H](CCCNC(=N)N)NC(=O)[C@@H](Cc1ccccc1)NC(=O)[C@H](Cc1c[nH]cn1)NC(=O)[C@H](CCC(=O)O)NC(=O)[C@H](CS)NC(=O)[C@H](CS)NC(=O)[C@H](CCCCN)NC(=O)[C@@H]1CC(=O)N[C@@H](CCCNC(=N)N)C(=O)N[C@@H]([C@@H](C)O)C(=O)N[C@@H](CC(=O)O)C(=O)N[C@H](Cc2ccc(O)cc2)C(=O)N1)C(N)=O [technetium-99m labelled] — uptake ratio (C57 mouse, female, B16/F1 melanoma; intravenous, 2 h, added: NDP-MSH 10 µg co-injected; reference: tumour over muscle): 8.64
CC1=C(COc2ccc(Br)cc2)C(=O)c2ccccc2C1=O — cathodic peak potential (cyclic voltammetry; DMSO; first wave, vs Ag/AgCl): -0.627 V
CCc1ccc(CCOc2ccc(CC3SC(=O)NC3=O)cc2)nc1 (centres unmarked) — intrinsic hepatic clearance (parallel tube model; human; from oral clearance): 66 L/h
CCCC[C@H](NC(C)=O)C(=O)N[C@H]1CCC(=O)NC[C@@H](C(=O)N[C@@H](Cc2c[nH]c3ccccc23)C(N)=O)NC(=O)[C@H](CCCNC(=N)N)NC(=O)[C@@H](Cc2ccccc2)NC(=O)[C@H](Cc2c[nH]cn2)NC1=O — half-life, geometric mean (healthy volunteers, both sexes, plasma; subcutaneous, 3.0 mg once daily, day 1): 9.5 h
liraglutide — bound fraction (equilibrium dialysis; human plasma; 10 nM, pH 7.4): 99.9%
CCCCc1oc2ccccc2c1C(=O)c1cc(I)c(OCCN(CC)CC)c(I)c1 — EC20 (cytochrome c release, ELISA; BALB/cByJ female mouse liver mitochondria; 30 min; reference: alamethicin maximal release): < 50 µM
CC[C@H](C)CCCCC(=O)N[C@@H](CCN)C(=O)N[C@H](C(=O)N[C@@H](CCN)C(=O)N[C@H]1CCNC(=O)[C@H]([C@@H](C)O)NC(=O)[C@H](CCN)NC(=O)[C@H](CCN)NC(=O)[C@H](CC(C)C)NC(=O)[C@@H](Cc2ccccc2)NC(=O)[C@H](CCN)NC1=O)[C@@H](C)O — free Cmin (equilibrium dialysis LC-MS/MS; human patients, plasma; dose not given, median): 70 ng/mL
[2H]C([2H])([2H])Oc1cc2c(cc1OC([2H])([2H])[2H])C1CC(=O)C(CC(C)C)CN1CC2 (centres unmarked) — dose-normalized Cmax (item: deuterated total (α+β)-HTBZ; healthy human volunteers, plasma; oral, 18 mg single dose, standard meal): 2.6 ng/mL
C[C@@H](N)c1cc(Cl)ccc1Cn1c(=S)[nH]c(=O)c2[nH]ccc21 — AUC(0-tau) (healthy Japanese volunteers, plasma; oral, 5 mg once daily, day 1, geometric mean): 0.217 µM·h
CC[C@H](C)C(=O)O[C@H]1C[C@@H](C)C=C2C=C[C@H](C)[C@H](CC[C@@H]3C[C@@H](O)CC(=O)O3)[C@H]21 — EC20 (mitochondrial swelling; BALB/cByJ female mouse liver mitochondria; 30 min, added: succinate + rotenone; reference: CaCl2 maximal swelling): 71.5 µM
O=C1N=C(N2CCOCC2)CN1c1ccc(Cl)cc1 — half-life (male beagle dog, plasma; oral, 30 mg/kg, fasted): 1.48 h
C[C@@H]1O[C@@H](OC[C@H]2O[C@@H](Oc3c(-c4ccc(OCCO)c(OCCO)c4)oc4cc(OCCO)cc(O)c4c3=O)[C@H](O)[C@@H](O)[C@@H]2O)[C@H](O)[C@H](O)[C@H]1O — EC20 (mitochondrial swelling; BALB/cByJ female mouse liver mitochondria; 30 min, added: succinate + rotenone; reference: CaCl2 maximal swelling): > 400 µM
CCCC[C@@H]1NC(=O)[C@@H](NC(=O)[C@H](CCC(=O)O)NC(=O)CNC(=O)CN2CCN(CC(=O)O)CCN(CC(=O)O)CCN(CC(=O)O)CC2)CCCCNC(=O)C[C@@H](C(N)=O)NC(=O)[C@H](C(C)C)NC(=O)[C@@H]2CCCN2C(=O)[C@H](CCCNC(=N)N)NC(=O)CNC(=O)[C@H](Cc2c[nH]c3ccccc23)NC(=O)[C@H](CCCNC(=N)N)NC(=O)[C@@H](Cc2ccccc2)NC(=O)[C@H](Cc2c[nH]cn2)NC(=O)[C@H](CCC(=O)O)NC1=O [indium-111 labelled] — tissue uptake (C57 mice, B16/F10 lung metastatic melanoma, skin; intravenous, 0.037 MBq, 24 h): 0.06 ± 0.03 %ID/g
